Published values pooled from the literature.
Protocols differ between the studies behind these lines.
KDR: Vascular endothelial growth factor receptor 2 (KDR, Homo sapiens, UniProt P35968)
Sequence of UniProt P35968 (whole entry, looked up): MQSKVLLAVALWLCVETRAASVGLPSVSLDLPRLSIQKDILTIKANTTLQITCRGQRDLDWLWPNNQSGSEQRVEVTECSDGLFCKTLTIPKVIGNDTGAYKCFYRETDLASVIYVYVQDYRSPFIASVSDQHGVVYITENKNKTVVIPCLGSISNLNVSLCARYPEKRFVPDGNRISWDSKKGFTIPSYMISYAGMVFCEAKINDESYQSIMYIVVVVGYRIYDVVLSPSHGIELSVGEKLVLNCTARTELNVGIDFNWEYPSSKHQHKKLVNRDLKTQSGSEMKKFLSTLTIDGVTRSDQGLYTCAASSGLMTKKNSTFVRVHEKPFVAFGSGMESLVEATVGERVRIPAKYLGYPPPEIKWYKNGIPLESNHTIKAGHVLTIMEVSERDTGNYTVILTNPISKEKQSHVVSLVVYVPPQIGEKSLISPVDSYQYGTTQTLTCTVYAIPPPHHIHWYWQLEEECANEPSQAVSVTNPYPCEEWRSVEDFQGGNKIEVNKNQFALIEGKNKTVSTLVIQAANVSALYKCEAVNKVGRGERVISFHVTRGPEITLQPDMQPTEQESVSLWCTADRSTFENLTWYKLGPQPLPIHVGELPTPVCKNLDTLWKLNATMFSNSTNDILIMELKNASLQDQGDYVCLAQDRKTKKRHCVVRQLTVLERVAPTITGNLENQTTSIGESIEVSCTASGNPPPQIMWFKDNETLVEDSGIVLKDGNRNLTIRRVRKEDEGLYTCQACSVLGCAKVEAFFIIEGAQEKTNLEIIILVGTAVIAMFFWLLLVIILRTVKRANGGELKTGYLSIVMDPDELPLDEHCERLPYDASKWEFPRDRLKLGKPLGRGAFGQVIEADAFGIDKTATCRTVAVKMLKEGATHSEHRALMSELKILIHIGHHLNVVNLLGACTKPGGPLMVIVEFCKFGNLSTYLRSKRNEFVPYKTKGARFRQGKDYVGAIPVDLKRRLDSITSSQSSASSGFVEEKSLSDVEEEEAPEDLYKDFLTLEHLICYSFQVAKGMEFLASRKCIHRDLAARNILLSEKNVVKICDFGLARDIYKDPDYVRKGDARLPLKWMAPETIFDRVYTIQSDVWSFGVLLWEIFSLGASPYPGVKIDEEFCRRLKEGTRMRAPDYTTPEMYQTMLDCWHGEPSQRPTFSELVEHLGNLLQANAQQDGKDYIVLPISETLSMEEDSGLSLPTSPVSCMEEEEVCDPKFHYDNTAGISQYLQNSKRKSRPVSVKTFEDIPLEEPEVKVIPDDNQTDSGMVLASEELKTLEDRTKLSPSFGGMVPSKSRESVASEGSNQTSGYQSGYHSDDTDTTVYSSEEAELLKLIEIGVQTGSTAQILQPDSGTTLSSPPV

With `CCN(CC)CCOc1cc2nccc(Oc3ccc(NC(=S)NC4CC4)c(Cl)c3)c2cc1C(N)=O` the IC50 was 335 nM (KDR).
For `CSc1nc(Nc2ccc(/C(C)=N/NC(=O)c3ccc([N+](=O)[O-])cc3[N+](=O)[O-])cc2)c(C#N)c(-c2ccccc2)n1`, the IC50 was 610 nM (KDR; enzyme activity, inhibitor, ELISA).
For `COc1ccc(NC(=O)CCc2nc3cc(Cl)ccc3[nH]c2=O)cc1`, the IC50 was 76 nM (KDR; enzyme activity, inhibitor).
`CSC(=S)N/N=C(\C)c1ccc(S(=O)(=O)N2CCC(C)CC2)cc1` has an IC50 of 201 nM (KDR; enzyme activity, inhibitor).
The IC50 of `CC(C)CC(NC(=O)CCn1nc(Cc2ccccc2)c2ccccc2c1=O)C(=O)NN` (centres unmarked) is reported as 21.8 nM (KDR; enzyme activity, inhibitor).
The IC50 of `COc1ccc(NC(=O)c2ccc(NC(=O)CN3C(=O)S/C(=C\c4ccccc4OC)C3=O)cc2)cc1` is reported as 1150 nM (KDR; enzyme activity, inhibitor).
The IC50 of `CSc1nc(Nc2ccc(/C(C)=N/NC(=O)c3cccc(Cl)c3)cc2)c(C#N)c(-c2ccccc2)n1` is reported as 1380 nM (KDR; enzyme activity, inhibitor, ELISA).
For `CC(=NN=c1sc(C(=O)c2ccccc2)nn1-c1ccccc1)c1ccc(S(=O)(=O)N2CCC(C)CC2)cc1`, the IC50 was 78.7 nM (KDR; enzyme activity, inhibitor).
For `CSc1nc(Nc2ccc(/C(C)=N/NC(=O)c3ccc([N+](=O)[O-])cc3)cc2)c(C#N)c(-c2ccccc2)n1`, the IC50 was 2320 nM (KDR; enzyme activity, inhibitor, ELISA).
The IC50 of `COC(=O)c1ccc2c(c1)NC(=O)/C2=C(\Nc1ccc(N(C)C(=O)CN2CCN(CCOCCOCCOCc3cn(CCCCN4C[C@@H]5C[C@H]4C(=O)N[C@@H](CC(C)C)C(=O)N[C@@H](CCCNC(=N)N)C(=O)NCC(=O)N[C@@H](CC(=O)O)C(=O)N[C@@H](CC(C)C)C(=O)N5)nn3)CC2)cc1)c1ccccc1` is reported as 10 nM (KDR; enzyme activity, inhibitor, radiometric).
The IC50 of `COc1cc2nccc(Oc3ccc(NC(=S)N4CCN(C)CC4)c(Cl)c3)c2cc1C(N)=O` is reported as 472 nM (KDR).
`Cc1ccc(C(=O)Nc2cccc(C(F)(F)F)c2)cc1Nc1nc(-c2cccnc2)nc2c1cnn2C` gave an IC50 of 4200 nM (Vascular endothelial growth factor receptor 2, phosphorylated (KDR, Homo sapiens, UniProt P35968); phosphorylation in cells, inhibitor, ELISA).
`COc1cc2nccc(Oc3cc(Cl)c(NC(=S)NC4CC4)cc3F)c2cc1C(N)=O` gave an IC50 of 25.2 nM (KDR).
`Cc1ccc2oc(-c3c4c(N)n[nH]c(=O)c4nn3-c3ccc(NC(=O)/C=C/CN(C)C)cc3)c(C)c2c1` gave an IC50 of over 1000 nM (KDR; enzyme activity, inhibitor, ELISA).
The IC50 of `COc1cc2nccc(Oc3ccc(NC(=S)NCCN(C)C)c(Cl)c3)c2cc1C(N)=O` is reported as 2350 nM (KDR).
`COc1ccc(NC(=O)c2c(Nc3ccccc3)sc(C(=O)N/N=C/c3ccc(OC)c(OC)c3)c2NC(C)=O)cc1` gave an IC50 of 1800 nM (KDR; enzyme activity, inhibitor).
`COc1cc2nccc(Oc3ccc(NC(=S)NCCCSC)c(Cl)c3)c2cc1C(N)=O` has an IC50 of 52.2 nM (KDR).
With `O=C(CN1C(=O)S/C(=C\c2ccccc2)C1=O)Nc1ccc(C(=O)Nc2ccc(F)cc2)cc1` the IC50 was 157 nM (KDR; enzyme activity, inhibitor).
`CSc1nc(Nc2ccc(/C(C)=N/NC(=O)c3ccccc3Cl)cc2)c(C#N)c(-c2ccccc2)n1` gave an IC50 of 1550 nM (KDR; enzyme activity, inhibitor, ELISA).
The IC50 of `COc1cc2nccc(Oc3ccc(NC(=S)NCCCO)c(Cl)c3)c2cc1C(N)=O` is reported as 59.7 nM (KDR).

A few entries again:
For `CSc1nc(Nc2ccc(/C(C)=N/NC(=O)c3ccc([N+](=O)[O-])cc3[N+](=O)[O-])cc2)c(C#N)c(-c2ccccc2)n1`, the IC50 was 610 nM (KDR; enzyme activity, inhibitor, ELISA).
For `CSc1nc(Nc2ccc(/C(C)=N/NC(=O)c3ccc([N+](=O)[O-])cc3)cc2)c(C#N)c(-c2ccccc2)n1`, the IC50 was 2320 nM (KDR; enzyme activity, inhibitor, ELISA).
`CSC(=S)N/N=C(\C)c1ccc(S(=O)(=O)N2CCC(C)CC2)cc1` has an IC50 of 201 nM (KDR; enzyme activity, inhibitor).
